Measured values from different studies.
Parts stem from different laboratories: compare values within a part only.
UniProt P60842, sequence (whole entry, looked up): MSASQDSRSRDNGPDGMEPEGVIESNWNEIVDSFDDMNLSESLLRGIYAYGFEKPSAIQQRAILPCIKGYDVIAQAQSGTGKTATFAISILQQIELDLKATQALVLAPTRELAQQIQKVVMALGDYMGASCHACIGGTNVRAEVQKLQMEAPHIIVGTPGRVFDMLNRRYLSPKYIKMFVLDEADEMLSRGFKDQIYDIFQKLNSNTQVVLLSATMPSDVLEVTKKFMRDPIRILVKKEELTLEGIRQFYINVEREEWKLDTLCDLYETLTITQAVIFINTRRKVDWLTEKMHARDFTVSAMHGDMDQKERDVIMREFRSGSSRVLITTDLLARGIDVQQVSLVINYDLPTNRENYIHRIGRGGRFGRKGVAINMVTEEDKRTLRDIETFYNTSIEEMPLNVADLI

Set 1
Cell line: HEK-293T
Organism: VSV pseudotyped with SARS-CoV-2 spike
Tested at: 10 µM
Time: 16 h
| Structure (SMILES) | pseudovirus infection |
| --- | --- |
| C[C@H]1O[C@@H](O[C@H]2[C@@H](O)C[C@H](O[C@H]3[C@@H](O)C[C@H](O[C@H]4CC[C@@]5(C)[C@H](CC[C@@H]6[C@@H]5C[C@@H](O)[C@]5(C)[C@@H](C7=CC(=O)OC7)CC[C@]65O)C4)O[C@@H]3C)O[C@@H]2C)C[C@H](O)[C@@H]1O | 0.97% |
| Cc1ncc(C[n+]2csc(CCO)c2C)c(N)n1 | 76.4% |
| COC(=O)C1=C(C)NC(C)=C(C(=O)OC)C1c1ccccc1[N+](=O)[O-] | 81.6% |
| CN(C/C=C/c1ccccc1)Cc1cccc2ccccc12 | 35.3% |
| Nc1nc2ccc(OC(F)(F)F)cc2s1 | 120% |

Set 2
Target: Replicase polyprotein 1ab, polymerase (rep, Severe acute respiratory syndrome coronavirus 2, UniProt P0DTD1)
Read-out: enzyme activity
Mode: inhibitor
Tested at: 20 µM
| SMILES | inhibition [%] |
| --- | --- |
| CCOc1ccc(NC(C)=O)cc1 | 4.13 |
| Cc1cccc(NC(=O)CN2CCC(c3ccccn3)CC2)c1 | -0.17 |
| COc1ccsc1CNCC[C@@]1(c2ccccn2)CCOC2(CCCC2)C1 | 1.29 |
| COc1cc(/C=C(\C#N)C(N)=O)cc(CSc2nc3ccccc3s2)c1O | 8.94 |
| COC(=O)C1=C(C)NC(C)=C(C(=O)OCCN2CCN(C(c3ccccc3)c3ccccc3)CC2)C1c1cccc([N+](=O)[O-])c1 (stereo not drawn) | 22.5 |
| CNC(=O)c1c(I)c(C(=O)NCC(=O)Nc2c(I)c(C(=O)O)c(I)c(C(=O)NCCO)c2I)c(I)c(N(C)C(C)=O)c1I | -3.2 |
| C[C@H]1CN(C[C@H](Cc2ccccc2)C(=O)NCC(=O)O)CC[C@@]1(C)c1cccc(O)c1 | -1.69 |
| COc1cc(C(=O)NCc2ccc(OCCN(C)C)cc2)cc(OC)c1OC | 27.7 |
| COc1nc(N)nc2c1ncn2[C@@H]1O[C@H](CO)[C@@H](O)[C@@H]1O | -0.71 |
| NC(N)=NC(N)=Nc1ccccc1 | -10.8 |
| O=C(NCc1ccc(OC(F)(F)F)cc1)C1c2ccccc2C(=O)N1C1CCOCC1 (stereo not drawn) | -26 |
| CCC[C@H](NC(=O)[C@@H]1[C@H]2CCC[C@H]2CN1C(=O)[C@@H](NC(=O)[C@@H](NC(=O)c1cnccn1)C1CCCCC1)C(C)(C)C)C(=O)C(=O)NC1CC1 | -1.81 |
| CN(C)c1cccc(Oc2cnc(Nc3cccc(O)c3)nc2)c1 | -2.64 |
| COc1cc(NC(=O)c2ccc(-c3ccc(Cl)cc3)o2)cc(OC)c1 | 2.86 |
| Nc1nc(F)nc2c1ncn2[C@@H]1O[C@H](COP(=O)(O)O)[C@@H](O)[C@@H]1O | -0.3 |
| CCOC(=O)c1c(CSc2ccccc2)n(C)c2cc(Br)c(O)c(CN(C)C)c12 | 2.05 |
| COc1ccc2ccc(=O)oc2c1CC=C(C)C | -1.02 |
| CCCCCCOc1cc2c(cc1N(C)c1ncc(C(=O)O)cn1)C(C)(C)CCC2(C)C | -13.7 |
| CO[C@@]1(NC(=O)Cc2cccs2)C(=O)N2C(C(=O)O)=C(COC(N)=O)CS[C@@H]21 | 13.7 |
| CCCCCCCCCCC[C@@H](C[C@@H]1OC(=O)[C@H]1CCCCCC)OC(=O)[C@H](CC(C)C)NC=O | 10.3 |
| O=C(/C=C/c1cccnc1)NCCCCC1CCN(C(=O)c2ccccc2)CC1 | -0.18 |
| NC(=O)CN1CCCC1=O | -0.74 |
| S=P(N1CC1)(N1CC1)N1CC1 | 0.6 |
| CN(C)CCOC(C)(c1ccccc1)c1ccccn1 (stereo not drawn) | 13.9 |
| CN1CCC(CNc2ccc3ncc(-c4cccc(OC(F)(F)F)c4)n3n2)CC1 | -8.61 |

Set 3
Target: RING finger protein unkempt homolog, zinc fingers 1-6, GST-SBP tag (UNK, Homo sapiens, UniProt Q9C0B0, residues 30-357)
Technique: RNA Bind-n-Seq
Molecule type: RNA
Matrix: in vitro
Tested at: not given
Setting: RNA with constant flanks, human-mouse chimeric sites, ends assumed
Relative to: input RNA pool
Reading: higher = stronger binding
Constant ends, left off below: GGGAGUUCUACAGUCCGACGAUC … CAACAGAGGAUUGAGCAUCA
Target sequence (chain): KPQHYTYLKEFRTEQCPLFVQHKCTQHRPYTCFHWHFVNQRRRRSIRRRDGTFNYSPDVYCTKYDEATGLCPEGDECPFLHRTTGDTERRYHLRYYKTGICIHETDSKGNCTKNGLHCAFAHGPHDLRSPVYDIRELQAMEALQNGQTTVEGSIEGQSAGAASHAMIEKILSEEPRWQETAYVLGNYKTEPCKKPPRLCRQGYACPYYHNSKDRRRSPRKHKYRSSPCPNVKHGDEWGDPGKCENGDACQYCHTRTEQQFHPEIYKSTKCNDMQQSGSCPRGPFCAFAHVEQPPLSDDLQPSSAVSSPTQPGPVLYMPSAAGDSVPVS
| Oligonucleotide | bound/input enrichment [ratio] |
| --- | --- |
| UGACAAGCACGAGCAUCAGCCAUGCCUUUCCUUGACAUACAGAAAAAGCUGGGCAUCAGCCUGGACCGGCACUUUAUAAUCCAGAGUGCAGAACAGCCCUAUAAGAACGCCGCUCGGUGC | 0.0862 |
| CAGCCUCAGAGCCCAGACUUCCUGGACAUUACCAACCCCAAAGCCGUAUUAGAAAAUGCAUUGAGAAACUUCGCCUGUCUGACGACUGGAGAUGUGAUUGCUAUCAACUACAAUGAGAAG | 0.374 |
| GGGUGGGUGGUCAUUGCCGUUUGAGCUGCUGAUUUUCAUGAGUCGCCUUCAAAACUCUCGUGUAGGGUUGACAAUGUGGGGGGGUGGGGGAUCCAGCUUAUUCUUUUUCCCCAGCCCCCA | 0.955 |
| UUGCCUGAGAACGAGGAUGAGCUGGAGAGCACCAACAGGCGCUACACCAAGAGGGACUGCAGCACUUUCCUCAGAACUAGUGAGACGGGCAUCGUGGACCAGGUCAUGGUCACUCUCAAC | 0.0834 |
| CUAGCAGUCCAGCAGCUAGAAGGAGCCUUGAGACAAACACUCCACACACAGGGAAGGCGAUAACAUUGUACAUUGGUUUACAUUUUUUCCCCCUGUGGAUUUUUCUAGAGGUCAUAGUGC | 0.728 |
| CACAGAGCAGCACCUACCCCCUCCUCCUUUCCACACCUGCAAACUCUUUUACUUGGGCUGAAUAUUUAGUGUAAUUACAUCUCAGCUUUUGAGGGCUCUGUGGCAAAAUACCCGGAUAAA | 1.26 |
| CCCCAAUUACCAUCUGUGGUCUGGAACUGCACUCUCUUUUUUAAAAAACAUGUAUACAUUUUAGGGCUGUAGACUUAUUUUCCUGGUUUUGUUUUUCAUUGCUGACUUUUGAGCACAGAA | 1.8 |
| UUUGUAUUUAUGCUAAGCACACGUGCUGGUGGUCUGGGCAUCAAUCUUGCAACUGCUGAUGUAGUCAUUUUGUAUGACUCAGAUUGGAAUCCGCAAGUUGAUCUUCAGGCUAUGGACCGU | 0.1 |

Set 4
Organism: SARS-CoV-2
Read-out: cytopathic effect
Cells: Vero E6
Tested at: 10 µM
| Structure (SMILES) | inhibition [%] |
| --- | --- |
| Oc1ccc2ccccc2c1SSc1c(O)ccc2ccccc12 | 0.6 |
| Cc1cc(C)cc(N2C(=O)CC(Sc3nnc[nH]3)C2=O)c1 (stereo not drawn) | 11.4 |
| OC[C@H]1O[C@H]([S-])[C@H](O)[C@@H](O)[C@@H]1O.[Au+] | 5.6 |
| O=C1C(=Cc2cccnc2)C(=O)c2ccccc21 | 30.5 |
| c1ccc2sc(SNC3CCCCC3)nc2c1 | -5.8 |

Set 5
Target: Histone acetyltransferase KAT6A, winged helix 1, GST fusion (KAT6A, Homo sapiens, UniProt Q92794, residues 1-85)
Technique: protein binding microarray
Molecule type: double-stranded DNA, one strand shown
Matrix: in vitro
Tested at: not given
Setting: 8-mer, flanks averaged, mean of 2 arrays, mostly near background
Relative to: not given
Reading: higher = stronger binding
Target sequence (chain): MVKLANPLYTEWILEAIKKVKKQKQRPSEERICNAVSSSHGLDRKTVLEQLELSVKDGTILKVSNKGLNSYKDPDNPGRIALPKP
| Oligonucleotide | E-score |
| --- | --- |
| CAATTGAC | -0.0598 |
| CAAAACCG | 0.147 |
| TCCCACCA | -0.146 |
| AATACTAA | -0.0179 |
| GGATGTAC | -0.0438 |
| ACGGCGAC | 0.388 |
| CCTTAGCA | -0.0872 |
| CGCAACCA | -0.0186 |

Other studies, line by line
Technique: RNA Bind-n-Seq
Molecule type: RNA
Matrix: in vitro
Tested at: 90 pmol
Setting: 4-mer, random 30-nt RNA, single round
Added: 3 µM DMDA-PatA, 2 mM ADP, 2 mM phosphate
Relative to: input library
Reading: higher = stronger binding
DDX3X helicase core: ATP-dependent RNA helicase DDX3X, helicase core (DDX3X, Homo sapiens, UniProt O00571, residues 132-607)
UniProt O00571, sequence (132-607, looked up): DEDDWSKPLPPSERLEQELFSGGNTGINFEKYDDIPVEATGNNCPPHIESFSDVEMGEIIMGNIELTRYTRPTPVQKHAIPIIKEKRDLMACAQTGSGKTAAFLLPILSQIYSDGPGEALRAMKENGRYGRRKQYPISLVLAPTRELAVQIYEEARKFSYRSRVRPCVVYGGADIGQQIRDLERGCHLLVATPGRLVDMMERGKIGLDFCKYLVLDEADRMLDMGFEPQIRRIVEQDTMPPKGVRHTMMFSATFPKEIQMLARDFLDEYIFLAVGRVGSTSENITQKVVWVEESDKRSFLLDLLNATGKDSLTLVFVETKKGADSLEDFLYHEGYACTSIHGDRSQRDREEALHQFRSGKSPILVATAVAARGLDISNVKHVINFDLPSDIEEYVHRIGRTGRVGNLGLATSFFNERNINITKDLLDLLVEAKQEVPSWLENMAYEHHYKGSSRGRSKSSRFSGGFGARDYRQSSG
| Oligonucleotide | target | 4-mer enrichment |
| --- | --- | --- |
| GGUA | Eukaryotic initiation factor 4A-I (EIF4A1, Homo sapiens, UniProt P60842, residues 1-406, full length assumed) | 0.997 fold |
| CGGA | DDX3X helicase core | 0.937 fold |
| CUUC | DDX3X helicase core | 0.825 fold |

For quick reference, copied from above (set 1):
| Structure (SMILES) | pseudovirus infection |
| --- | --- |
| C[C@H]1O[C@@H](O[C@H]2[C@@H](O)C[C@H](O[C@H]3[C@@H](O)C[C@H](O[C@H]4CC[C@@]5(C)[C@H](CC[C@@H]6[C@@H]5C[C@@H](O)[C@]5(C)[C@@H](C7=CC(=O)OC7)CC[C@]65O)C4)O[C@@H]3C)O[C@@H]2C)C[C@H](O)[C@@H]1O | 0.97% |
| Cc1ncc(C[n+]2csc(CCO)c2C)c(N)n1 | 76.4% |
| COC(=O)C1=C(C)NC(C)=C(C(=O)OC)C1c1ccccc1[N+](=O)[O-] | 81.6% |
| CN(C/C=C/c1ccccc1)Cc1cccc2ccccc12 | 35.3% |
| Nc1nc2ccc(OC(F)(F)F)cc2s1 | 120% |
